Published values collected from several papers.
Protocols differ between the studies behind these lines. Numbers after ± are the reported error. ≈ marks a conversion by molar mass, not a printed value.

Compound = CS(=O)(=O)Nc1ncn(-c2cc(F)c(COc3ccc(OS(=O)(=O)F)cc3)c(F)c2)n1; organism = Mycolicibacterium smegmatis; quantity = MIC; value = 6.25 µM
Compound = CCCCCCC#Cc1cncc(-c2nnc(SCc3cc([N+](=O)[O-])cc([N+](=O)[O-])c3)n2C)c1; organism = Mycolicibacterium smegmatis; scale = no activity below value; quantity = MIC; value = ≥ 100 µM
Compound = CO[C@H]1/C=C/O[C@@]2(C)Oc3c(C)c(O)c4c(O)c(c(/C=N/N5CCN(C)CC5)c(O)c4c3C2=O)NC(=O)/C(C)=C\C=C\[C@H](C)[C@H](O)[C@@H](C)[C@@H](O)[C@@H](C)[C@H](OC(C)=O)[C@@H]1C; organism = Mycolicibacterium smegmatis; quantity = MIC; value = 12.5 to 25 µg/mL
Compound = CCc1nc2ccc(Cl)cn2c1C(=O)NCc1ccc(N2CCC(c3ccc(OC(F)(F)F)cc3)CC2)cc1; organism = Mycolicibacterium smegmatis; setting = 72 h; quantity = MIC; value = > 100 µM
Compound = O=C(NCc1ccccc1)C(c1cccs1)N(CCN1CCOCC1)C(=O)c1ccccc1 (centres unmarked); organism = Mycolicibacterium smegmatis; test system = mc2155; quantity = MIC; value = > 128 µM
Compound = [H]/N=C(/N)N[C@H]1[C@H](O)[C@@H](O)[C@H](O[C@@H]2O[C@@H](C)[C@](O)(C=O)[C@H]2O[C@@H]2O[C@@H](CO)[C@H](O)[C@@H](O)[C@@H]2NC)[C@@H](N/C(N)=N\[H])[C@@H]1O; organism = Mycolicibacterium smegmatis; quantity = MIC; value = 0.4 µg/mL
Compound = O=C(NC1CCCCC1)C(CCc1ccccc1)N(CCc1c[nH]cn1)C(=O)c1ccccc1 (centres unmarked); organism = Mycolicibacterium smegmatis; test system = mc2155; quantity = MIC; value = > 128 µM
Compound = CO[C@H]1[C@H](O[C@H]([C@H]2O[C@@H](n3ccc(=O)[nH]c3=O)[C@H](O)[C@@H]2O)[C@H](NCCCNC(=O)[C@@H](NC(=O)[C@@H](NC(=O)N[C@H](C(=O)O)C(C)C)[C@@H]2CCN=C(N)N2)[C@@H](OC(=O)CCCCCCCCCCCCN(O)C(=N)N)C(C)C)C(=O)O)O[C@H](CN)[C@H]1O; organism = Mycolicibacterium smegmatis; assay = microplate alamar blue; test system = ATCC 607; setting = nutrient-deficient condition; quantity = MIC90; value = 0.04 ± 0.005 µg/mL (≈ 0.0329 µM)
Compound = O=c1cc(-c2ccc(O)cc2)oc2cc(O)cc(O)c12; organism = human coronavirus OC43; assay = virus-induced cell killing; test system = MRC-5; setting = screen; quantity = maximum inhibition; value = 9.12%
Compound = CC(=O)N[C@H]1[C@@H](O[C@@H]2O[C@H](C[C@@H](O)[C@H]3O[C@@H](n4ccc(=O)[nH]c4=O)[C@H](O)[C@@H]3O)[C@H](O)[C@H](O)[C@H]2NC(=O)/C=C/CCCCCCCCCC(C)C)O[C@H](CO)[C@@H](O)[C@@H]1O; organism = Mycolicibacterium smegmatis; assay = microplate alamar blue; test system = ATCC 607; setting = nutrient-deficient condition; quantity = MIC90; value = 12.6 µg/mL (≈ 15.2 µM)
Compound = C=C1C(=O)O[C@H]2[C@H]1CC/C(C)=C/CC[C@@]1(C)O[C@@H]21; organism = human coronavirus OC43; assay = virus-induced cell killing; test system = MRC-5; setting = screen; quantity = maximum inhibition; value = 13.3%

A few entries again:
Compound = CCc1nc2ccc(Cl)cn2c1C(=O)NCc1ccc(N2CCC(c3ccc(OC(F)(F)F)cc3)CC2)cc1; organism = Mycolicibacterium smegmatis; setting = 72 h; quantity = MIC; value = > 100 µM
